Results collected from several papers.
Each numbered part is a random draw from the data of one study; scales do not carry over between parts. Changes are numbered by the printed parent chain.

Set 1 — method: competition protein-binding microarray; form: double-stranded DNA, one strand shown; medium: in vitro; concentration: 2 µM; together with: Pho4 competitor, 0.05 µM; direction: higher = stronger binding; all sequences stand within: … GTCTTGATTCGCTTGACGCTGCTG
Target: Centromere-binding protein 1, full length, His-tagged (CBF1, Saccharomyces cerevisiae, UniProt P17106, residues 1-351)
Chain of UniProt P17106 (whole entry, looked up): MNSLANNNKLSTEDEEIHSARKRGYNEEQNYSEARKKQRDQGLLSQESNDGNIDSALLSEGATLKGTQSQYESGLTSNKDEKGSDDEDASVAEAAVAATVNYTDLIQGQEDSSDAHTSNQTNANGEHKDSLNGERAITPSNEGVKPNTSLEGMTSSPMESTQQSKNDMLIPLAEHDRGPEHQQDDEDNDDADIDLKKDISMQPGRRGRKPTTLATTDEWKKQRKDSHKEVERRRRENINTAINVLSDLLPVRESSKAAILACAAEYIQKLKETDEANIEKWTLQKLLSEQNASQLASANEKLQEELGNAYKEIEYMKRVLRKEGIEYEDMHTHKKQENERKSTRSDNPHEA
Setting: whole 60-bp probe, lowest competitor level
Oligonucleotide	fluorescence intensity
GTACGGGTGGACGACCACGTGCCGACTATACGCTAT	2160 a.u.
CATTTGACTCCATAGAACGTGTGGAGCTGGTGCCAT	68.4 a.u.
CTAACGAAGGTTTTTCACGTGAACTACAAGCCAAGT	1120 a.u.
AGAATGTCCCCTGTACACGTGGCAGATTGGCTGAAA	1030 a.u.
ATTGTATGAAGATAACGCGTGGTGAATTGGAAATAG	106 a.u.
CGGGGTTAAGTTTGTCACAACACTTGCTTGCAGCAG	87.4 a.u.
ACACACATTCTCCGTCACATGGACGATGCCAGAGTC	468 a.u.
CTCTTTTCGCGGAGCCGCATGCAAGGCTACATTAAA	76.8 a.u.
CTATTGCAAGAACTGGCCGTGATGGCAGAGTATCGG	66.8 a.u.
ATCATAACGGAGCGAACCGTGCCGAAGATGTCAAGA	63.9 a.u.
TGCGCAACAACTTGGTTAGTGGGTGTATGTCTAGAA	66.3 a.u.
TCGCACCTTTGTGAGCACATGATTCTTTCTGCCGGT	686 a.u.
AATCATGGAATCCATCACGTGGTCGCAACTGGGGAT	5640 a.u.
TGGCCAAGGTTGTCTTCCGTGACTCGTACAAGTACA	93.9 a.u.
ATACGACTCCCAACACACGTTTAATGTTGTACGAAT	84 a.u.
GATTTCTTAGCCCATCACGTGCTAACTTTTTGGAAT	6060 a.u.
TGCGCAACAACTTGTCACAGCACTTTATGTCTAGAA	79.5 a.u.
CATACCCAACCTTGAATCGTGGGTGAAGATATTTGT	67.6 a.u.
TGCCCTTGCGCCTGGCACGTTTCAGCTTCTTTCTAA	101 a.u.

Set 2 — method: RNA Bind-n-Seq; form: RNA; medium: in vitro; concentration: not given; reference: input RNA pool; direction: higher = stronger binding
Target: RING finger protein unkempt homolog, zinc fingers 1-6, GST-SBP tag (UNK, Homo sapiens, UniProt Q9C0B0, residues 30-357)
Chain of UniProt Q9C0B0 (30-357, looked up): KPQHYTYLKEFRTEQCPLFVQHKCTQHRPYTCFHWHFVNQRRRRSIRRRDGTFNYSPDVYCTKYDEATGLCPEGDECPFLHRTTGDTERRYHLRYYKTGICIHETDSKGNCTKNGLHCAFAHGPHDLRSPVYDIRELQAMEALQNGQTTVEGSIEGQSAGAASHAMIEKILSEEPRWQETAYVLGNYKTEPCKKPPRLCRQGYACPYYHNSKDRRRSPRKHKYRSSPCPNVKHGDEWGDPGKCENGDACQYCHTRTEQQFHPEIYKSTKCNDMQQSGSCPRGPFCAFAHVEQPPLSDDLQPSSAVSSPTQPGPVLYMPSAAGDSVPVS
Setting: RNA with constant flanks, human-mouse chimeric sites, ends assumed
All sequences stand within: GGGAGUUCUACAGUCCGACGAUC … CAACAGAGGAUUGAGCAUCA
Oligonucleotide	bound/input enrichment [ratio]
GGGGAGAAACCUUAUGAAUGCGUUCAGUGUGGGAAAUCCUACAGUCAGAGCUCAAACCUCUUCAGACAUCAGAGACGACACAAUGCAGAAAAACUUUUGAAUGUUGUGAAGGUUUAAGAA	0.193
GGAAGUACAAUGAUGGAAAUAGAUGGCGACAAAGGCAAGCAGGGCGGGCCCACCUACUACAUAGACACCAAUGCCCUCCGCGUGCCCAGGGAGAACAUGGAGGCCAUCUCACCACUCAAG	0.237
ACUCUUGACUCUUUCCAUCCUCUUCCUUUCCCUCUUGAUCUUCAAGGCCAUGAAUCCCAAAAUAACAGUCUUAGUGGGAGGCUAGCAAACAGAGGUGGAAUAAAUCCACCCCAGUGUCUC	0.613
AAAGAAUGGAUAGAGUGUGCACACGGGAUCGGUGGGACCCGGGCGAAAAAGGAGUGCAAGAUAGAGUUCGAUGACUUCGAAGAGUGCUUGCUUCGGCACAAAACGAUGAGGCGAAUGCAU	0.609
UCGGAUGCUGUGCUGGGUCACUUUUCAUAUCCAGAUCCUUCCCAGUGGACAGAUGAAGAACUGGGAAUCCCUCCUGAUGACGAGGACUGACACUGUAGACUCAGCCUACGAGUAGGAGCA	0.232
UCCUUGGACCCCAGUCAUAUAGGUGACCUGCAGAAAGCAGACACCAGUAGUCAAGGUGCUUUAGUGUUUCUCUCAAAGGACUACGAAAUAGAAAGUCAAAAUCCCCUGGCCUCUCCUACG	1.93
UGUAGUUUCGCGGUUCAGGCUUUGUGUGUAGUUCACUUACGGUAUUAAAUUAUUAUUCUGCUUAGCUUAAAGUAAGGAUAAUUGCAUUUAAAGAGGUUACUGAAUGUUACUCUGAAACUU	0.273
UAAGUCCUGUGCCAGCACUUCGCUCAUAAAGUUUUAAAUUCUGGACCAAUAGUGUUUGUUUCCUGAUUUUUGUAUUCAAUACUUUGCCUAGUAUGUAACUCACUCUUACUGAUAAUAAAA	1.02

Set 3 — method: RNA Bind-n-Seq; form: RNA; medium: in vitro; concentration: 365 nM; reference: no-protein control; direction: higher = stronger binding
Target: RNA binding protein fox-1 homolog 2, RRM domain, GST-SBP tag (RBFOX2, Homo sapiens, UniProt O43251-10, residues 100-194)
Setting: natural RNA segment, single round, ends assumed
All sequences stand within: GGGAGUUCUACAGUCCGACGAUC … UGGAAUUCUCGGGUGCCAA
Target sequence (chain): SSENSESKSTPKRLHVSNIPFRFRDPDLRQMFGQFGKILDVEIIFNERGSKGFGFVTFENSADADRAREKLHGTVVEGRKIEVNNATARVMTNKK
Oligonucleotide	RBNS enrichment (R)
UGGCGCCCCACCCCUCCUGAGAUGGAAUGGACUCGAUUUGAGCAAGCCAUGGCCCUCCAGCUCCCCAGCCCGGCUGCGGAGUUGCAGCAGGUCCUGCCCAUCGGGCACAU	0.224
UGCACUCAAACUUAACAUUUAUCUAUUAAAAUUGCCAUUUCAUUAAGCAAUUUUCACGCACAGUAGAUUCAACUUGUUUUUUGUGCUGUUUUUUGAUUUUUGCUGACUUA	0.429
UCUCCUUCUCUGCUCUUAAACCUGGAGACGCUUGCUCUGCCUUCUCCCCUAUCACUUCAAGUGUUUAUACCUGAGUUUCUUAGGAAGAAAGUAAGUCUGAUGGCUUGUUG	6.94
AUGAGAGAAAUAUAUUUACAAAUGCUUUAUUCUCUUCUUUAAUAAAAAGUGCACCGGUAUUCUAGAAGUCCAAGUGACCCUGGGUCUAUCGUUUCGCCUCCGAGUCUCAC	0.671
CUUGGUUUAUCUGCACAGUACAAGCUGCUGGUAGACUACACUAGCCCUCUGGUUUCCCAGCGCAGCCUCUCAUACAGUGGACUGACAGCCUGCACUCUGUUUAGUCAGCC	0.394
CAAAGUUAUGAUGAACUGCAAACAUCCAAAGGAUGUGAGAGUUUUUCUAUGUAUAAUGUUUUAUACACUUUUUAACUGGUUGCACUACCCAUGAGGAAUUCGUGGAAUGG	0.76
UGGGCACUCGGCAUUUUGACACAUGUCCUGUCAAAAGGCCAGAGUCCCCAGUGUCCCCUCCCCUCCAUCUCUCUUCCCCAUAGACCCCAUAACCCCAGACCAAAGAGGUU	0.514
UUCUUAAGCACAAUUGGGCUUCUUCCAUCUCCAGGUUUUCUGCCAUUCUUAACCAAGGCUGCCUCUUCCAACAGGGCGGGAAUCAGACCUACUCCCCUAGGUCACAACUC	0.441

Set 4 — method: DHFR PCA, deep sequencing; medium: yeast; together with: (+)-ABA 0.0091 µM; reference: wild-type fitted maximum; direction: higher = stronger binding
Target: ABI1, truncated, D143A, DHFR fusion (Arabidopsis thaliana)
Setting: methotrexate growth selection, single substitutions
Starting sequence: PYL1, truncated, DHFR fusion (Arabidopsis thaliana); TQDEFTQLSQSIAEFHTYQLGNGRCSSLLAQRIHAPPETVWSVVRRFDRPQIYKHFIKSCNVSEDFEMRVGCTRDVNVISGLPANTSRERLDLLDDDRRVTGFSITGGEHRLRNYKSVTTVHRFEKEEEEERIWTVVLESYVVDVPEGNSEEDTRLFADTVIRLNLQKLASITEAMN; partner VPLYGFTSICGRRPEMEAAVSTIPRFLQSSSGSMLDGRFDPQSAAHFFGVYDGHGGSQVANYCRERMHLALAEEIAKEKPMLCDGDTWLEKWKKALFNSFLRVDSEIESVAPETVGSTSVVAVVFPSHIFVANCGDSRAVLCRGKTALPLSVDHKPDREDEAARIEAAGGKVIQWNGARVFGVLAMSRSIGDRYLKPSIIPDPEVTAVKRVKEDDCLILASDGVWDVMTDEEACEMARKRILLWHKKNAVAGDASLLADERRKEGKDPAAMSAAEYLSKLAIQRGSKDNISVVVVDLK
Variant	relative binding score [%]
L93V	41.4
Q7K	24.1
V76K	-1.87
V161T	13
L164K	-0.513
C25Q	5.2
F103I	-5.69
V100E	-10.4
G108N	-5.13
C60P	-5.87
R98L	7.8
L169C	0.0236
A35C	2.52
V137T	5.08
E131C	37.2
A84D	21.6
N85A	50.2
V100C	3.99

For quick reference, copied from above (set 2):
Oligonucleotide	bound/input enrichment [ratio]
UCGGAUGCUGUGCUGGGUCACUUUUCAUAUCCAGAUCCUUCCCAGUGGACAGAUGAAGAACUGGGAAUCCCUCCUGAUGACGAGGACUGACACUGUAGACUCAGCCUACGAGUAGGAGCA	0.232
UCCUUGGACCCCAGUCAUAUAGGUGACCUGCAGAAAGCAGACACCAGUAGUCAAGGUGCUUUAGUGUUUCUCUCAAAGGACUACGAAAUAGAAAGUCAAAAUCCCCUGGCCUCUCCUACG	1.93
UGUAGUUUCGCGGUUCAGGCUUUGUGUGUAGUUCACUUACGGUAUUAAAUUAUUAUUCUGCUUAGCUUAAAGUAAGGAUAAUUGCAUUUAAAGAGGUUACUGAAUGUUACUCUGAAACUU	0.273
